Measurements from different studies.
Each line is one published result; not all experiments were run side by side. Several values in a cell are separate wells, animals, samples, runs or records. Numbers after ± are the reported error.
AGER: Advanced glycosylation end product-specific receptor (AGER, Homo sapiens, UniProt Q15109)
UniProt Q15109, sequence (whole entry, looked up): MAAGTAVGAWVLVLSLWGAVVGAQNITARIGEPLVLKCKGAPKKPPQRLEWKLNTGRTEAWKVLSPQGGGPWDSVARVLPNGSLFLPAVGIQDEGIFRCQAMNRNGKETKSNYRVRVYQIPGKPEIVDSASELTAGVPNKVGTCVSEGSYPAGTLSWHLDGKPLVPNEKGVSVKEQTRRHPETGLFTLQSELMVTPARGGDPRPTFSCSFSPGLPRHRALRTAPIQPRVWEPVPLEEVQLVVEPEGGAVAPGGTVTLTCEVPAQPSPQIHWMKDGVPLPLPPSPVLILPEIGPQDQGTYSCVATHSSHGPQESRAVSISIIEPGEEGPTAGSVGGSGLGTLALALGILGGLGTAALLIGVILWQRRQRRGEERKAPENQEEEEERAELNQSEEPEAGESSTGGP
VASP: Vasodilator-stimulated phosphoprotein (VASP, Homo sapiens, UniProt P50552)
UniProt Q10QA5, sequence (whole entry, looked up): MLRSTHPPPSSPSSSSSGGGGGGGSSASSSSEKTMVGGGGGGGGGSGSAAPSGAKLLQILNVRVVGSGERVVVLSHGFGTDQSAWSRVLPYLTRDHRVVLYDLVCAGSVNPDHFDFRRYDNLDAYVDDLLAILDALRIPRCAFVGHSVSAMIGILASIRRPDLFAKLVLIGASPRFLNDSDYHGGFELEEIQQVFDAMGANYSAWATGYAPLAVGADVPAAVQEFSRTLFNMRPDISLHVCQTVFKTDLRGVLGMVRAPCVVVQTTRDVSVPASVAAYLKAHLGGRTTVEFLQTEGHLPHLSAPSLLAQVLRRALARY
UniProt P50552, sequence (whole entry, looked up): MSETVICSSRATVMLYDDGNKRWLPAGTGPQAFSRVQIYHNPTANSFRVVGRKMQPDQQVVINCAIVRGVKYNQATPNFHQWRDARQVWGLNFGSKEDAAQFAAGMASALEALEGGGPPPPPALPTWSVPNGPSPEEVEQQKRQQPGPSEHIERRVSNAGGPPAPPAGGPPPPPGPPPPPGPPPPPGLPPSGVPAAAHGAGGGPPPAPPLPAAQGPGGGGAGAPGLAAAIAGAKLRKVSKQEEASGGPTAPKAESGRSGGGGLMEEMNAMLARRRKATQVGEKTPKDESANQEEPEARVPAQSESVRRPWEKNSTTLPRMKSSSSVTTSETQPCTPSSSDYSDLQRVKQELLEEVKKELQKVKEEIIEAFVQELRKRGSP
UniProt P08191, sequence (whole entry, looked up): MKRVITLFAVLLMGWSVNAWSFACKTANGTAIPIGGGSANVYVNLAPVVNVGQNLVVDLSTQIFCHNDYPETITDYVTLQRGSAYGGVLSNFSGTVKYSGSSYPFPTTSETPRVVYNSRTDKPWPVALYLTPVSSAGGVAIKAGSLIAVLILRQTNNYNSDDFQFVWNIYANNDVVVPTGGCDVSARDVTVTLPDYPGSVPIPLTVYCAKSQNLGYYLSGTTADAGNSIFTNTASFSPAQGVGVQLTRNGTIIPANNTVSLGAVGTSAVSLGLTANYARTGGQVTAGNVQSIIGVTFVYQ
UniProt Q8NEZ5, sequence (whole entry, looked up): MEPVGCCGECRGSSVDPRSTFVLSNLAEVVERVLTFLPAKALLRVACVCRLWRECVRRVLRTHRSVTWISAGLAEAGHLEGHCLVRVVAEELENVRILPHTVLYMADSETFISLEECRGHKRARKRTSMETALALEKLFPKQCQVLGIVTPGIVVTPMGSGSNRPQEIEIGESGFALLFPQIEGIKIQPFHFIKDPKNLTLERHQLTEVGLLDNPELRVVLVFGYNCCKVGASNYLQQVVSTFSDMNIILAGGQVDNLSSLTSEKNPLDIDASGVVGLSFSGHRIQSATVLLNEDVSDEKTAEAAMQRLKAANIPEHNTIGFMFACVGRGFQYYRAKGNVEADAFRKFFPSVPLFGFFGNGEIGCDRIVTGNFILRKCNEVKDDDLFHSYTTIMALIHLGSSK
UniProt O96013, sequence (whole entry, looked up): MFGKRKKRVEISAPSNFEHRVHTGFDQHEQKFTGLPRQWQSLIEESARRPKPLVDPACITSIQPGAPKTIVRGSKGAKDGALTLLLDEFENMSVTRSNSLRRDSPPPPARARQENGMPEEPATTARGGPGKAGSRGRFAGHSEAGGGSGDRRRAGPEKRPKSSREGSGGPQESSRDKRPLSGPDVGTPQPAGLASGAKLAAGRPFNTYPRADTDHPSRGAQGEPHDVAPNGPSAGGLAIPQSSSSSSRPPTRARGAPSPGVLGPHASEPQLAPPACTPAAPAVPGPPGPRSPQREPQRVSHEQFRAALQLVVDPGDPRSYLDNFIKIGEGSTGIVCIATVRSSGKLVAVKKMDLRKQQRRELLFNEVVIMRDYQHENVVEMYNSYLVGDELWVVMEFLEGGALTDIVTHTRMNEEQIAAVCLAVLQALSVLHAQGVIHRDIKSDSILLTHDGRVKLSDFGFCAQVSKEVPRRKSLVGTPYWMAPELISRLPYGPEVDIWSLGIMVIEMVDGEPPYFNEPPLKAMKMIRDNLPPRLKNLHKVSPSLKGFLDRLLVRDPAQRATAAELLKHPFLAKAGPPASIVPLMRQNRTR
UniProt O75469, sequence (whole entry, unmodified, looked up): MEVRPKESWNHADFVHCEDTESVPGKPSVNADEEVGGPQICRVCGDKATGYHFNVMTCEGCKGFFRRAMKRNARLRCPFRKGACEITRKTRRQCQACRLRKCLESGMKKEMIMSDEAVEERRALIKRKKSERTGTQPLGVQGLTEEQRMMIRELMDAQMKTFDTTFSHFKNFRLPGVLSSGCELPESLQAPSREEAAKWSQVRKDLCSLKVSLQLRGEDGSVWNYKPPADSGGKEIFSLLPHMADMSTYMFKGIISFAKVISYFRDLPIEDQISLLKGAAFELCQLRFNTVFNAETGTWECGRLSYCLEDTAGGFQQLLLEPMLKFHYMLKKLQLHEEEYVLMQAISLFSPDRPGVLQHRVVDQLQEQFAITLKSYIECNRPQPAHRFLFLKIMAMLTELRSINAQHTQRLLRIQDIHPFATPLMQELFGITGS
UniProt P50750, sequence (whole entry, looked up): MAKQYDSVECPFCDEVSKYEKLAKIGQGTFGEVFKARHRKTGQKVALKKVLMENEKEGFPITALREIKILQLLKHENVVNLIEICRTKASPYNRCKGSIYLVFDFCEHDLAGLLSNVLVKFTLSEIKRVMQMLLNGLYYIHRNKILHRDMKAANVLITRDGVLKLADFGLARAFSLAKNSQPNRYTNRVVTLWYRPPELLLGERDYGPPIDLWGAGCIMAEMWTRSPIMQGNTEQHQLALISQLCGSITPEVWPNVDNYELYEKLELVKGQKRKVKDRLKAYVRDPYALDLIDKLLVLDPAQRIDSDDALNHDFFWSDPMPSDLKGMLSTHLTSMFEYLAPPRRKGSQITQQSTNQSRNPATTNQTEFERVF
UniProt P16885, sequence (whole entry, looked up): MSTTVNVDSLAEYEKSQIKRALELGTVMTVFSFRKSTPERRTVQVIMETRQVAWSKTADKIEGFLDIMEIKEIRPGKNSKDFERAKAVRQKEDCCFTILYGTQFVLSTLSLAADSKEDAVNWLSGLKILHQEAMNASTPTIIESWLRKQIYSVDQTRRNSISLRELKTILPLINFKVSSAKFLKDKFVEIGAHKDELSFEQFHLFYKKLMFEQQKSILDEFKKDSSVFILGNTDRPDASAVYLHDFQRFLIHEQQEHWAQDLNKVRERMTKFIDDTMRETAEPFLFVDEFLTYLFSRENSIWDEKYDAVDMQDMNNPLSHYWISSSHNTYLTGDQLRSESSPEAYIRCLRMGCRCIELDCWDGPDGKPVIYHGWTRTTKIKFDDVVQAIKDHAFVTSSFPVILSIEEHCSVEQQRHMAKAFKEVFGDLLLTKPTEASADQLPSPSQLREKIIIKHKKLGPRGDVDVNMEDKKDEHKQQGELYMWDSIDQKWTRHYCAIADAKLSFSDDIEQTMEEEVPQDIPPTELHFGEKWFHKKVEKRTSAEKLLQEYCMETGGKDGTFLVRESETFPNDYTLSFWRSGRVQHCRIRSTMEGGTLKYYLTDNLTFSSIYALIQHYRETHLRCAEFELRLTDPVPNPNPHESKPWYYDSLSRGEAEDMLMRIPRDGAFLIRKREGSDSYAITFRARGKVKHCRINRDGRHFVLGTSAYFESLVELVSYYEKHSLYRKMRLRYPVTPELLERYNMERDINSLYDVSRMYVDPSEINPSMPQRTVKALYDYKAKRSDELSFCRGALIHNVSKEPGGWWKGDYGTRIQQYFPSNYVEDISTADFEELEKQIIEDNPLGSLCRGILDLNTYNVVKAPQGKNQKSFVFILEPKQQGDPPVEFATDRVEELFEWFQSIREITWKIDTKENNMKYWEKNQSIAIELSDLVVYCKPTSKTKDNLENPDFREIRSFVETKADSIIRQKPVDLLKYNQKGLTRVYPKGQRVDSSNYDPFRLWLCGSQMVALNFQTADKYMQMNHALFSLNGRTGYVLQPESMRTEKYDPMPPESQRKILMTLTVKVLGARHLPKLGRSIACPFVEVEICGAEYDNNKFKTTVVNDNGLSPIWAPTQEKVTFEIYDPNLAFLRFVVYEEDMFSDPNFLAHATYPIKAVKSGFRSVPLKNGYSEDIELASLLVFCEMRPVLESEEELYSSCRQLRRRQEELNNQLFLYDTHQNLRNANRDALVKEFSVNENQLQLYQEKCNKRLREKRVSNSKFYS
UniProt P11086, sequence (whole entry, looked up): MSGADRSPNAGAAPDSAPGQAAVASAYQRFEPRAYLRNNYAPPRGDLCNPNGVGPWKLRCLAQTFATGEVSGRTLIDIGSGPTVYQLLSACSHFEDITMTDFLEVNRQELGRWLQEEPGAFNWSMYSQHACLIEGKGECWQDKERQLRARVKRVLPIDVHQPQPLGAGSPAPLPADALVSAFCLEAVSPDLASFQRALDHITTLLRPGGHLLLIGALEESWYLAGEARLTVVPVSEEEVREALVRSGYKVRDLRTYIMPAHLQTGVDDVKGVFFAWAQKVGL

With `CCCCCNC(=O)N1N=C(c2ccc(Cl)cc2)CC1c1ccc(NC(=O)Nc2ccc(Cl)cc2)cc1` (centres unmarked) the Kd was 13800 ± 3100 nM (AGER; binding).
With `O=C(Nc1cc(-c2ccnc3[nH]ccc23)c(Cl)cn1)[C@H]1CCC[C@@H](NC(=O)C(F)(F)F)C1` the Kd was 0.28 nM (Cyclin-dependent kinase 9 (CDK9, Homo sapiens, UniProt P50750); binding, competition with immobilised ligand).
`CC(=O)NC(Cc1ccccc1Cl)C(=O)N1CCCC1C(=O)N1CCCC1C(=O)N1CCC2C=CC3C(C)CC(C(=O)O)N3C(=O)C21` (centres unmarked) gave a Kd of 380 nM (VASP; binding, fluorescence).
With `Cc1cccc2c1N(C(=O)n1ccnn1)CC2` the Kd was 31500 nM and 25800 nM and 14000 nM (D14 (Oryza sativa, UniProt Q10QA5); binding, ITC).
With `Nc1nnc(-c2ccccc2O)cc1N1CC2CCC(C1)N2c1ccnc(C#CCCN2CCCCCC2)c1` the Kd was > 2000 nM (F-box only protein 22, with SKP1 (Homo sapiens, UniProt Q8NEZ5); binding, surface plasmon resonance; FBXO22-SKP1 complex immobilised).
`Nc1ncnc2c1ncn2C1OC(CN(CCCC2CNCc3c2ccc(Cl)c3Cl)CCC(N)C(=O)O)C(O)C1O` (mixture of isomers) has a Kd of 313 ± 9 nM (Phenylethanolamine N-methyltransferase (PNMT, Homo sapiens, UniProt P11086); ITC; pH 8.0, 25 °C, second site, SAH-bound enzyme).
With `NCc1ccc(Cl)cc1` the Kd was 29000 nM (Amine oxidase [flavin-containing] A (Maoa, Rattus norvegicus, UniProt P21396); steady-state isotope effects; pH 7.5).
With `CCc1nc2cc3ccccc3cc2cc1C(=O)N[C@@H](CCCCN)C(=O)N[C@@H](C/C=C\C[C@H](NC(=O)[C@H](CCCCN)NC(=O)c1cc2cc3ccccc3cc2nc1CC)C(=O)N1CCC[C@H]1C(=O)NCCCN)C(=O)N1CCC[C@H]1C(=O)NCCCN` the Kd was 275 nM ((CCUG)10 RNA; SPR).
With `CCCCCCCO[C@H]1CO[C@H](CO)[C@@H](O)[C@H](O)[C@@H]1O` the Kd was 186 nM and 154 nM (Type 1 fimbrin D-mannose specific adhesin, lectin domain (fimH, Escherichia coli K-12, UniProt P08191); binding, isothermal titration calorimetry; 15 °C, individual titrations).
For `O=C(O)Cc1ccccc1Nc1c(Cl)cccc1Cl`, the Kd was 82000 nM (1-phosphatidylinositol 4,5-bisphosphate phosphodiesterase gamma-2 (PLCG2, Homo sapiens, UniProt P16885); binding, surface plasmon resonance; 25 °C, immobilised residues 1-1195).
With `Cc1c[nH]c2nccc(-c3ccc(C(=O)N[C@@H]4c5c(F)cc(C(F)F)cc5C[C@@H]4O)cn3)c12` the Kd was 420 nM (Serine/threonine-protein kinase PAK 4 (PAK4, Homo sapiens, UniProt O96013); binding, competition with immobilised ligand).
The Kd of `CCc1nc2cc3ccccc3cc2cc1C(=O)N1CCC[C@H]1C(=O)N[C@@H](C/C=C/C[C@H](NC(=O)[C@@H]1CCCN1C(=O)c1cc2cc3ccccc3cc2nc1CC)C(=O)N[C@@H](CCCCN)C(=O)NCCCN)C(=O)N[C@@H](CCCCN)C(=O)NCCCN` is reported as 17 nM ((CCUG)10 RNA; SPR).
The Kd of `C=C1C[C@]23C[C@H]1CC[C@H]2[C@@]12CC[C@H](O)[C@@](C)(C(=O)O1)[C@H]2[C@@H]3C(=O)O` is reported as 350 nM (GID1 (Oryza sativa, UniProt Q6L545)).
With `COc1ccc(OC)c(-n2nnc(C(=O)Nc3cc(OCCOCCOCCOCCNC(=O)CCc4ccc5n4[B-](F)(F)[N+]4=C(C)C=C(C)C4=C5)cc(C(C)(C)C)c3)c2C)c1` the Kd was 40 ± 4 nM (Nuclear receptor subfamily 1 group I member 2, ligand-binding domain (NR1I2, Homo sapiens, UniProt O75469, L411A); binding; PXR LBD L411A).
For `CCCC[C@@H]1NC(=O)[C@H](Cc2ccc(O)cc2)NC(=O)[C@@H]2CCCN2C(=O)[C@H](CC(=O)O)NC(=O)[C@H](C)NC(=O)[C@H](Cc2ccccc2)NC(=O)[C@@H]2CSCCC(=O)N3CN(CN(C3)C(=O)CCSC[C@@H](C(=O)N[C@@H](C)C(N)=O)NC1=O)C(=O)CCSC[C@H](NC(C)=O)C(=O)N[C@@H](CC(C)(C)C)C(=O)N1CCC[C@H]1C(=O)N[C@@H](CCC(=O)O)C(=O)N[C@H](CCCCNC(=O)CCc1cn(CCOCCOCCOCCN(CCOCCOCCOCCC(=O)N[C@H]3CSCCC(=O)N4CN5CN(C4)C(=O)CCSC[C@H](NC(=O)[C@@H](CC(=O)O)NC(=O)[C@H](Cc4cccc6ccccc46)NC(=O)[C@@H]4CCCN4C3=O)C(=O)N[C@@H](CCSC)C(=O)N[C@@H](CCCCNC(=N)N)C(=O)N[C@@H](CC(=O)O)C(=O)N[C@@H](Cc3c[nH]c4ccccc34)C(=O)N[C@@H](CO)C(=O)N[C@@H]([C@@H](C)O)C(=O)N3CCC[C@H]3C(=O)N3C[C@H](O)C[C@H]3C(=O)N[C@@H](Cc3c[nH]c4ccccc34)C(=O)N[C@H](C(N)=O)CSCCC5=O)CCOCCOCCOCCn3cc(CCC(=O)NCCCC[C@H]4NC(=O)[C@H](CCC(=O)O)NC(=O)[C@@H]5CCCN5C(=O)[C@H](CC(C)(C)C)NC(=O)[C@@H](NC(C)=O)CSCCC(=O)N5CN6CN(C5)C(=O)CCSC[C@H](NC(=O)[C@H](Cc5ccc(O)cc5)NC(=O)[C@@H]5CCCN5C4=O)C(=O)N[C@@H](Cc4ccccc4)C(=O)N[C@@H](C)C(=O)N[C@@H](CC(=O)O)C(=O)N4CCC[C@H]4C(=O)N[C@@H](Cc4ccc(O)cc4)C(=O)N[C@@H](CCCC)C(=O)N[C@H](C(=O)N[C@@H](C)C(N)=O)CSCCC6=O)nn3)nn1)C(=O)N1CCC[C@H]1C(=O)N[C@@H](Cc1ccc(O)cc1)C(=O)N2`, the Kd was > 200 nM (Cell adhesion molecule 3 (CADM3, Homo sapiens, UniProt Q8N126); SPR).
For `CNC(=O)C[C@H](Cc1ccc(C#N)cc1)NC(=O)c1cc(-c2ccc(CN[C@H](C)c3ccc(C)cc3)o2)ccc1Cl`, the Kd was > 20000 nM (ATPase family AAA domain-containing protein 2, bromodomain (ATAD2, Homo sapiens, UniProt Q6PL18); binding, competition with immobilised ligand).
`NCCCC[C@H](NC(=O)[C@H](C/C=C/C[C@H](NC(=O)[C@@H]1CCCN1)C(=O)N[C@@H](CCCCN)C(=O)NCCCN)NC(=O)[C@@H]1CCCN1)C(=O)NCCCN` has a Kd of 31100 nM ((CCUG)10 RNA; SPR).
With `CCOC(=O)C1CC(CC)C2C=CC3CCN(C(=O)C4CCC5C=CC6(CCCN6C(=O)C(Cc6ccccc6Cl)NC(C)=O)C(=O)N54)C3C(=O)N12` (centres unmarked) the Kd was 400 nM (VASP; binding, fluorescence).
`CCc1nc2cc3ccccc3cc2cc1C(=O)N1CCC[C@H]1C(=O)N[C@@H](CCC/C=C/CCC[C@H](NC(=O)[C@@H]1CCCN1C(=O)c1cc2cc3ccccc3cc2nc1CC)C(=O)N[C@@H](CCCCN)C(=O)NCCCN)C(=O)N[C@@H](CCCCN)C(=O)NCCCN` gave a Kd of 248 nM ((CCUG)10 RNA; SPR).
With `CCCCC(=O)N1N=C(c2ccc(NC(=O)Nc3ccc(Cl)cc3)cc2)CC1c1ccc(Cl)cc1` (centres unmarked) the Kd was 22600 ± 1100 nM (AGER; binding).

Excerpt of the above:
`CC(=O)NC(Cc1ccccc1Cl)C(=O)N1CCCC1C(=O)N1CCCC1C(=O)N1CCC2C=CC3C(C)CC(C(=O)O)N3C(=O)C21` (centres unmarked) gave a Kd of 380 nM (VASP; binding, fluorescence).
With `Cc1cccc2c1N(C(=O)n1ccnn1)CC2` the Kd was 31500 nM and 25800 nM and 14000 nM (D14 (Oryza sativa, UniProt Q10QA5); binding, ITC).
